Published values from different studies.
Each numbered part is a random draw from the data of one study; scales do not carry over between parts. Substitutions count along the parent as printed.
Chain of UniProt P41143 (whole entry, looked up): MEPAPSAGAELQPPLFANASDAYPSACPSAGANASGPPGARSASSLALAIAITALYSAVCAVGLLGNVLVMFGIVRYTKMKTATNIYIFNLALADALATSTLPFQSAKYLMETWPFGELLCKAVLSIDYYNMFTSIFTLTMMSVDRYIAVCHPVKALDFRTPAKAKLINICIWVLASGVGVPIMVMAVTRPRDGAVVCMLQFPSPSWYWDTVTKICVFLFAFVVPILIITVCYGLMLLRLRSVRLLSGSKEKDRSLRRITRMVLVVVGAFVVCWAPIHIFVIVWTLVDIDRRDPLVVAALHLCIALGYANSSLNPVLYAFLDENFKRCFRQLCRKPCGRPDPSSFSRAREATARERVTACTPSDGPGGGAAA

Block 1
Target: UDP-N-acetylglucosamine--peptide N-acetylglucosaminyltransferase 110 kDa subunit (OGT, Homo sapiens, UniProt O15294)
Chain of UniProt O15294 (whole entry, looked up): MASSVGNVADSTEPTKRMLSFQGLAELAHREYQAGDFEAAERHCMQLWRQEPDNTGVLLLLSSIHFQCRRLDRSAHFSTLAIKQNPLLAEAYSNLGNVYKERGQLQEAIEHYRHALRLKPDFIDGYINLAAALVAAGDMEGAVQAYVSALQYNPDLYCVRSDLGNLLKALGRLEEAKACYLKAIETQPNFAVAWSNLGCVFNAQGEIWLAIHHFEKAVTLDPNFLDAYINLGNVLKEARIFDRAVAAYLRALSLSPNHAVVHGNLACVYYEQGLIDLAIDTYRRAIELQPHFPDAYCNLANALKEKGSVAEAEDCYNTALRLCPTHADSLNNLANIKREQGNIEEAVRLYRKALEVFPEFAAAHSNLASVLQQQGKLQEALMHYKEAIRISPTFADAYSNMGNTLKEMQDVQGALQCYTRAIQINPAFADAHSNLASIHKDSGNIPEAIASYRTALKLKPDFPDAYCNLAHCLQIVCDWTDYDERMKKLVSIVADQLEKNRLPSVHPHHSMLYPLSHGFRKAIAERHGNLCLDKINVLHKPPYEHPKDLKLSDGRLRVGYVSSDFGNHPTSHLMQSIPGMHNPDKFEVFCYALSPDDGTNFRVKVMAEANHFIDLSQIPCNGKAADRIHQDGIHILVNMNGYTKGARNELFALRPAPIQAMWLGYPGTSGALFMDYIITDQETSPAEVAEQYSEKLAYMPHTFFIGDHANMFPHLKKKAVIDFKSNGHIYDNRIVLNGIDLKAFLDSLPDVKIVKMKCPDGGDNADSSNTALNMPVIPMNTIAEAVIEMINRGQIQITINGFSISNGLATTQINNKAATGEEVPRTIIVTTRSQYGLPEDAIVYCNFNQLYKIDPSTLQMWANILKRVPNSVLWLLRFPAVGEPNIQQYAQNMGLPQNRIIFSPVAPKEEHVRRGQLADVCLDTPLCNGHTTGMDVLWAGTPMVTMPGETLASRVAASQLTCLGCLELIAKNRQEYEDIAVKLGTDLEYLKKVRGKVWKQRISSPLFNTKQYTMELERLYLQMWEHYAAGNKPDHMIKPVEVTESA
Effect on: binding
Method: phage display NGS
Molecule type: peptide
Tested at: concentration not given
Baseline: input library
Molecule	enrichment fold change
SWAPWHIASQRHQDF	3.39
SYNHRHSTSYHIDHR	7.33
WSAVMPQYRIEYNYA	59.3
DDTGPFQPMYQIQII	54.4
ITSMDYTPAYQLRYS	2.45
NMSDHHRTSYYHVRH	5.92
NFFPQYQINPWIATD	3.3
QPSRQHHAEHHPWHR	9.14

Block 2
Target: CCNB3, cyclin fold, Cln2 fusion (human)
Method: yeast growth competition, sequencing
Matrix: yeast
Notes: weak parent motif
Baseline: not given
Direction: higher = stronger binding
Parent: viral docking peptide; PGASRRLFGSSAD; partner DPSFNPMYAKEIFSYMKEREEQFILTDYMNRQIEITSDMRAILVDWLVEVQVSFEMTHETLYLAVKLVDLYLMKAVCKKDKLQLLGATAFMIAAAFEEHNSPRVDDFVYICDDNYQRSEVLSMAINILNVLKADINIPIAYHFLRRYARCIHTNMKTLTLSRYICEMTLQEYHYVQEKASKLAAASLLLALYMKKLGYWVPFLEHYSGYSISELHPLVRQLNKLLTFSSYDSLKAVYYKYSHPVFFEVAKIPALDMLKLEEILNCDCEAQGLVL
Change	normalised enrichment score
R5A L7A	0.171
F8A	-0.0438
R5A	0.556
S11A	0.321
R5K F8L	0.107
G2A	0.207
L7A	-0.212

Block 3
Target: tungstate, free oxyanion
Method: microfluidic competitive inhibition
Matrix: in vitro, cell-free expressed
Tested at: not given
Notes: derived from inhibition constants, unchanged parent 2230 nM
Direction: lower = stronger binding
Parent: PafA, mature enzyme, eGFP fusion (Elizabethkingia meningoseptica, UniProt Q9KJX5); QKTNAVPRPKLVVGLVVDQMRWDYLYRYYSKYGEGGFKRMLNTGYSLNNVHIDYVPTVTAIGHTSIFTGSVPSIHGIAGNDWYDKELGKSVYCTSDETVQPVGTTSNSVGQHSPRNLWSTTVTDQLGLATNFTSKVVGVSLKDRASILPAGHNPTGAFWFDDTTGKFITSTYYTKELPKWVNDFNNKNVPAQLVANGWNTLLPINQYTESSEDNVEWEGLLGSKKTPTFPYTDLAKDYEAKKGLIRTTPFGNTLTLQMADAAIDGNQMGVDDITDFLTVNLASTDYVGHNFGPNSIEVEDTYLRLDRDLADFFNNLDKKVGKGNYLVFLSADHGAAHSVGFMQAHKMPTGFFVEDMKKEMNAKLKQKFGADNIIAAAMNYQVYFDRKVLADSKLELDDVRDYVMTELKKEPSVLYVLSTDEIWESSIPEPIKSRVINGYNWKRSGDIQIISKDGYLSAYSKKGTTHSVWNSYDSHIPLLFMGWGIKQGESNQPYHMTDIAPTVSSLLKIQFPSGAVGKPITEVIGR
Change	oxyanion analog dissociation constant
E421G	1970 nM
G138V	1990 nM
F291G	1840 nM
R115V	2540 nM
S90V	4970 nM
R400V	2410 nM
L305G	2000 nM
W469V	1400 nM

Further values, each from its own experiment
Compound	target	test system	measurement	result
CCN(CC)C(=O)c1ccc(C2=CC3(CCNCC3)Oc3cccc(O)c32)cc1	Delta-type opioid receptor, with Gi3 (OPRD1, Homo sapiens, UniProt P41143)	human cells	EC50	45.5 nM
